# Measurements collected from several papers.
# Parts stem from different laboratories: compare values within a part only. Positions count from the first letter of the parent shown.
# Chain of UniProt Q9FGV1 (whole entry, looked up): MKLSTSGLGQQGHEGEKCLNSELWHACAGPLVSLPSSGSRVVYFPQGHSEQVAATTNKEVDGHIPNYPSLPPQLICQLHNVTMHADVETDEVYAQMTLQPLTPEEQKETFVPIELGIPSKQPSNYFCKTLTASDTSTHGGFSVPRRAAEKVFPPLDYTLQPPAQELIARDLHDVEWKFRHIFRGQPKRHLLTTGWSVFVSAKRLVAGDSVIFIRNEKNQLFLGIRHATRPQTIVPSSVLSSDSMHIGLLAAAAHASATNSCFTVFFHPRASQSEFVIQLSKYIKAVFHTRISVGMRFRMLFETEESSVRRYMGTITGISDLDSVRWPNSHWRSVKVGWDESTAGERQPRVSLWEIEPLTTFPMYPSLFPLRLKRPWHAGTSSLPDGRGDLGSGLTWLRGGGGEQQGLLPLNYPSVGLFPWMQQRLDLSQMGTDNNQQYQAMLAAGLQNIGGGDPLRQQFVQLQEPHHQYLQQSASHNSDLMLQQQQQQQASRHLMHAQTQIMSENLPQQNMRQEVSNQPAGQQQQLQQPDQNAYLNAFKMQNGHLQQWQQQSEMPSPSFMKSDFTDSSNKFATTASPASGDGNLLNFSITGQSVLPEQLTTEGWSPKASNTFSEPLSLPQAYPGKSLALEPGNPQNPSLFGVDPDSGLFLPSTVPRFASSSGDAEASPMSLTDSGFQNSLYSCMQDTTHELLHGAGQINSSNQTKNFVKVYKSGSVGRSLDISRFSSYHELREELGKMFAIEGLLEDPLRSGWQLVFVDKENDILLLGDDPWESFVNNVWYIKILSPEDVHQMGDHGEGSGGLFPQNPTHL
# Chain of UniProt Q9XFM0 (whole entry, looked up): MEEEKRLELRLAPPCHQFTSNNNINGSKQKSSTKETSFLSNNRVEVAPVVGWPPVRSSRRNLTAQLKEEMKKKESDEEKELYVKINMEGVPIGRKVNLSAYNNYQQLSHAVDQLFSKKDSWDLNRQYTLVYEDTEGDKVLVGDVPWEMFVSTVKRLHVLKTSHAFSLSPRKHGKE
# Chain of UniProt Q9XED8 (whole entry, looked up): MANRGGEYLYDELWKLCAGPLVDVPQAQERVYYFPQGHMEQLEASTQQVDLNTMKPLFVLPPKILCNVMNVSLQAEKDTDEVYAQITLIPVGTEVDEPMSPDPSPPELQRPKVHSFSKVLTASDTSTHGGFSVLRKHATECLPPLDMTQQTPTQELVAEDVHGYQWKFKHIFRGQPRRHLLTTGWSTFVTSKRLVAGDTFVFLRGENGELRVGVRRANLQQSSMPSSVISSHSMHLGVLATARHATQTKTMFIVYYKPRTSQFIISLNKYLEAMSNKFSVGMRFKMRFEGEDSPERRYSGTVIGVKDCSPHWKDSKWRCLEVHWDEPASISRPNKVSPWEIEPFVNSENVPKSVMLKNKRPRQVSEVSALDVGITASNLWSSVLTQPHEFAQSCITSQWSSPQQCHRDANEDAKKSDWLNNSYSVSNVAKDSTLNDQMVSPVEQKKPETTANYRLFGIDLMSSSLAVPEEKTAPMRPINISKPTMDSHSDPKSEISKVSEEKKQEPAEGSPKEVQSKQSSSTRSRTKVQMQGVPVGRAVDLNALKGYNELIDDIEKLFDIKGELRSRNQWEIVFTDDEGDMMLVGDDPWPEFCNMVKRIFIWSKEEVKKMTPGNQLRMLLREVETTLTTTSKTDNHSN
# Chain of UniProt Q9ZTX9 (whole entry, looked up): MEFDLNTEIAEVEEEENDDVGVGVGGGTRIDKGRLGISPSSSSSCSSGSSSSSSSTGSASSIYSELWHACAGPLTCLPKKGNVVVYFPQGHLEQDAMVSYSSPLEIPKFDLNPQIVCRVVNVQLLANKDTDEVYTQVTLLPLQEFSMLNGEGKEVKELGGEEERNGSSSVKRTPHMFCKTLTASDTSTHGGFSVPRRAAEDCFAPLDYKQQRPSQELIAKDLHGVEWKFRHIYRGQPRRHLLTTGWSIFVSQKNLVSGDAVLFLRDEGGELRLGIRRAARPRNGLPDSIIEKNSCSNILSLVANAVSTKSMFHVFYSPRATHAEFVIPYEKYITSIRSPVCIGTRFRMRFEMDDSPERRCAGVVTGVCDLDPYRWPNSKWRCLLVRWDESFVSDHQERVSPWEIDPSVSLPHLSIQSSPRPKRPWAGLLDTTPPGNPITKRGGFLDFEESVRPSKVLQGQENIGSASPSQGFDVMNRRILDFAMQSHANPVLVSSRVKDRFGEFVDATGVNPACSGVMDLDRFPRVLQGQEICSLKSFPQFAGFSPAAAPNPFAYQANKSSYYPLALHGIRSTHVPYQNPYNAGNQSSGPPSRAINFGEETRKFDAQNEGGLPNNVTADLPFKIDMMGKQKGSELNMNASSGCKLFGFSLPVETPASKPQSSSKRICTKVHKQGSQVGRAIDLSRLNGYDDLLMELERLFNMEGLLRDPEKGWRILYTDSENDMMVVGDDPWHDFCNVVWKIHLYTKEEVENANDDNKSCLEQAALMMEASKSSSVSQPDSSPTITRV
# Chain of UniProt O24410 (whole entry, looked up): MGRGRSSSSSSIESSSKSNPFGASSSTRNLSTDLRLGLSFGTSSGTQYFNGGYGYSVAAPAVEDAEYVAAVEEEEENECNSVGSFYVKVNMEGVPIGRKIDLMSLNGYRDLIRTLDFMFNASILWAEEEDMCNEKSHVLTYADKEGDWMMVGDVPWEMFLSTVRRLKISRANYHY
# Chain of UniProt Q9C5W9 (whole entry, looked up): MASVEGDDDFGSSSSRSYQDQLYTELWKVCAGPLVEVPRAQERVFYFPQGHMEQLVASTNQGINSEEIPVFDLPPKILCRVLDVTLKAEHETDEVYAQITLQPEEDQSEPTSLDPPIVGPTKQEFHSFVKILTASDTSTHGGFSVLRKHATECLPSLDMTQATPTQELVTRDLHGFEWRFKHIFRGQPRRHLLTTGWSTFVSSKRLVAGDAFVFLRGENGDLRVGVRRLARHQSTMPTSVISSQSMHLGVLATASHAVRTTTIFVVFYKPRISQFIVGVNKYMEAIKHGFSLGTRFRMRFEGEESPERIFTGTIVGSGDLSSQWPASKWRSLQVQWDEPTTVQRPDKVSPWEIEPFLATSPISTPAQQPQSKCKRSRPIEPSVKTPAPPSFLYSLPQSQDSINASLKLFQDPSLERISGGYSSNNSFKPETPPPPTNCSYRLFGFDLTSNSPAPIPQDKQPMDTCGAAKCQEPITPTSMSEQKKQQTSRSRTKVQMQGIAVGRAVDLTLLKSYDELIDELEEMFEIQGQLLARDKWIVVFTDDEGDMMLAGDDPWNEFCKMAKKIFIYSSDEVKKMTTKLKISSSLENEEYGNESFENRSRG
# Chain of UniProt Q9FKM7 (whole entry, looked up): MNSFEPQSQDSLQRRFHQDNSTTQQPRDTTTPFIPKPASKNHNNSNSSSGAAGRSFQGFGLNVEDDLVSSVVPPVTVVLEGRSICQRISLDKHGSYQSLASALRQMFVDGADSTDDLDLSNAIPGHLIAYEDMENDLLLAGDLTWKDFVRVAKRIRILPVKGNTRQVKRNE
# Chain of UniProt O24407 (whole entry, looked up): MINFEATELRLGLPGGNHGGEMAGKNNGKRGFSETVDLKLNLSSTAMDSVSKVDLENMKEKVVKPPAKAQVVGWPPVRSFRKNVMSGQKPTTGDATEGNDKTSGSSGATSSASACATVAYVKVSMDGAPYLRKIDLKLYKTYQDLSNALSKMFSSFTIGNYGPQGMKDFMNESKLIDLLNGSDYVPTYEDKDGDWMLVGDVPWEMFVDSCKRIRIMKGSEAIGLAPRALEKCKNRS
# Chain of UniProt Q9LQE8 (whole entry, looked up): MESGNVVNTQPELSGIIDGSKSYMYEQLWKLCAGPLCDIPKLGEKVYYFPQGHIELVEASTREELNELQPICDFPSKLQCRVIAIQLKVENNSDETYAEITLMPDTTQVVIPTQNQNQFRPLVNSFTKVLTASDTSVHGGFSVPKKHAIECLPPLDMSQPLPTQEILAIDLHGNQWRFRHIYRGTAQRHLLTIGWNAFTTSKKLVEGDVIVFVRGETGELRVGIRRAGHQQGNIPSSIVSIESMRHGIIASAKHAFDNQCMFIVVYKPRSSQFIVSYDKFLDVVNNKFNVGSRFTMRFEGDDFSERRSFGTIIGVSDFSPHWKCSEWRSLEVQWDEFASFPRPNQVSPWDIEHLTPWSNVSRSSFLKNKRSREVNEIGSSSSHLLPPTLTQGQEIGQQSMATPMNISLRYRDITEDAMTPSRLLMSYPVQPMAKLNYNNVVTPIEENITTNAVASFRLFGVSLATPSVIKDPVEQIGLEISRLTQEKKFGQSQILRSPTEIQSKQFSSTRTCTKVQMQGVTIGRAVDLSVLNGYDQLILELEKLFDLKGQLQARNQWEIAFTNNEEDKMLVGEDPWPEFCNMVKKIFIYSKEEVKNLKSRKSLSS

# Study 1 — target: CCNB2, cyclin fold, Cln2 fusion (human); method: yeast growth competition, sequencing; medium: yeast; notes: strong parent motif; reference: not given; direction: higher = stronger binding
# Starting sequence: MICAL3 docking peptide (human); LQLRRQLSFSEDS; partner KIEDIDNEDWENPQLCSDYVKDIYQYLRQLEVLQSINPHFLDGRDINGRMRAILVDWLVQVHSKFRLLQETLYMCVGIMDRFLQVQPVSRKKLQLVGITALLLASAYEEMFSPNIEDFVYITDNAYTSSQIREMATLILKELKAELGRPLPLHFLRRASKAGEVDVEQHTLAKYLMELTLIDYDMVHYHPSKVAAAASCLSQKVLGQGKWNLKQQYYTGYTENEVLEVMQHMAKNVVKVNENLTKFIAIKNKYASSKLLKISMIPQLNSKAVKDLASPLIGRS
Substitution,normalised enrichment score
LQMRRQLSFSEDS [L3M],1.66
LQLRRQLSFSEQS [D12Q],2.59
LQLARQLSFSEDS [R4A],3.34
LQLRRQRSFSEDS [L7R],0.0421
LQLRRQLSFSHDS [E11H],1.27
LQLNRQLSFSEDS [R4N],2.06
LQLRRALSFSEDS [Q6A],3.11
LQLRRQLSQSEDS [F9Q],0.22
LQLRRQLSFAEDS [S10A],1.75
LQLRRQLNFSEDS [S8N],1.62
LQLRRQLSMSEDS [F9M],0.248
LQLRRQLSFSNDS [E11N],2.11
LQLRLQLSFSEDS [R5L],0.393
LQLRRQLTFSEDS [S8T],1.72
LQLRRGLSFSEDS [Q6G],0.434
LQLRRHLSFSEDS [Q6H],2.82
LKLRRQLSFSEDS [Q2K],3.59

# Study 2 — method: protein binding microarray; molecule type: double-stranded DNA, one strand shown; medium: in vitro; concentration: not given; reference: not given; direction: higher = stronger binding
# Target: Histone acetyltransferase KAT6A, winged helix 2, GST fusion (KAT6A, Homo sapiens, UniProt Q92794, residues 85-181)
# Notes: 8-mer, flanks averaged, mean of 2 arrays, mostly near background
# Construct (chain): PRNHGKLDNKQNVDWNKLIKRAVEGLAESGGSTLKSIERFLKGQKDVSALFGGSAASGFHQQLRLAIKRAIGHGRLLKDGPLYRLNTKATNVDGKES
Sequence,E-score
CTTTATAA,0.0215
TCGCTGAA,0.133
AGGGAACT,0.0187
ATGCGGAC,-0.0475
CACTTACA,-0.0499
CCGCTACA,-0.0297
CGTCTCTC,-0.0855
CCACATTA,-0.133
AGCAGTGG,-0.0043
GCGGACCA,0.138
AACTCACC,-0.0311
AGACGGCT,-0.12
AAGACCGC,0.0897
ACGTTTAA,-0.0934
CCAATTGA,-0.0281
ACGCTATA,-0.171
CCTGACCG,0.000165
TGCACAAA,0.00719
CAAAGCCG,0.103
CAGAAGAG,0.0443
CATAATGA,0.0222
GACTAGAC,-0.121
GCACCACA,-0.18
ACCGAAAC,0.191
CAGGGTGA,-0.00665

# Study 3 — method: universal PBM; molecule type: double-stranded DNA, one strand shown; medium: in vitro; concentration: not given; direction: higher = stronger binding
# Target: Sal-like protein 4, full length isoform B (SALL4, Homo sapiens, UniProt Q9UJQ4-2, residues 1-616)
# Notes: 8-mer, flanks averaged, mean of replicates
Sequence,E-score
GGCCACAC,-0.176
ACGCTTAA,0.114
AGACGCAA,-0.00291
CTGTCAGA,-0.139
GGTTGCTA,-0.0448
CGCTTGTC,-0.187
CGATAAAC,-0.0195
AAGCGCGT,-0.17
AAGAGCGT,0.0691
AGGACTAT,0.042
AAGTCTCC,-0.0253
GAGAGCAA,-0.0919
CATATGAG,0.178
CGTTGATC,0.00633
TCGTTACA,0.0518
GAGCGGTA,-0.195
AACTCAAA,0.165
CGGGTTTA,-0.00106
ACACGGGC,-0.293
CCAGTCAC,-0.152
ACAGTACC,-0.0339
GCCCCTCA,-0.28
GCTGTTAC,-0.211
CAATCATG,0.121
CGTACCAG,-0.19

# Study 4 — target: CEBPD, bZIP domain (human); method: DHFR protein complementation; medium: yeast; reference: wild-type JUN-FOS pair; direction: higher = stronger binding
# Notes: single substitutions, most at no-binding floor
# Starting sequence: JUN, bZIP domain (human); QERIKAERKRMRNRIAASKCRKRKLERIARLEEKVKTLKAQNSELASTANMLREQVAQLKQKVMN; partner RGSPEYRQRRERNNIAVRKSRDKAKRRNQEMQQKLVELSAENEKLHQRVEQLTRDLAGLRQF
Substitution,binding fitness [natural log]
S47D,-1.32
V35H,-1.47
L52E,-1.53
I28V,-1.35
T48N,-1.08
E32W,-1.48
Q55T,-1.48
S47V,-1.32
S43D,-1.19
Q55I,-1.36
S43K,-1.32
V35Q,-1.4
A29T,-1.33
V35K,-1.45
E44N,-1.46
R53D,-1.36
A46R,-1.31
R30P,-1.4
M51A,-1.3
K34S,-1.41
E32G,-1.43
V35A,-1.4
V35C,-1.23
L38P,-1.4

# Study 5 — method: DHFR PCA, dose-response; medium: yeast; notes: Hill fit, mean, not affinity; with: (+)-ABA, dose series; direction: lower = more sensitive
# Target: ABI1, truncated, D143A, DHFR fusion (Arabidopsis thaliana, UniProt P49597)
# Starting sequence: PYL1, truncated, DHFR fusion (Arabidopsis thaliana, UniProt Q8VZS8); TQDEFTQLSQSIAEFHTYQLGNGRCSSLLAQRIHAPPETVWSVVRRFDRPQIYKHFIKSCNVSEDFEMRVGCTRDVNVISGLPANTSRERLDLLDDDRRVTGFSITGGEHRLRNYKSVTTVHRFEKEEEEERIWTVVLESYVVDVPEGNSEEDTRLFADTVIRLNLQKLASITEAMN
Substitution,ABA EC50
E128N,1.76 µM
K126V,1.43 µM
K168I,22.7 µM
F5E,4.43 µM
C25H,125 µM
T160Q,30.7 µM
P37E,15.2 µM
Q2S,1.92 µM
N77W,4.03 µM
A158L,2.28 µM
S150D,5.38 µM
Q51L,160 µM
E128T,2.71 µM
R99H,3.77 µM
G102E,337 µM
I133H,2.1 µM
E109H,16 µM
K126M,2.46 µM
Q51G,18.3 µM
S9I,17.7 µM
E130M,3.23 µM
D144N,21.9 µM
Q31W,33.7 µM
T17N,11.9 µM
T1R,2.08 µM

# Study 6 — Sequence: B1 (IAA15); method: two-hybrid; direction: higher = firmer interaction
# B1: IAA15 (Arabidopsis thaliana, UniProt Q9C966); chain MSPEEYVRVWPDSGDLGGTELTLALPGTPTNASEGPKKFGNKRRFLETVDLKLGEAHENNYISSMVTNDQLVGWPPVATARKTVRRKYVKVALDGAAYLRKVDLGMYDCYGQLFTALENMFQGIITICRVTELERKGEFVATYEDKDGDLMLVGDVPWMMFVESCKRMRLMKTGDAIGL
partner,notes,reference,positive tests
"IAA16 (Arabidopsis thaliana, UniProt O24407)",,out of 4 tests,2
"ARF9 519-638 (Arabidopsis thaliana, UniProt Q9XED8)",weak activation fusion,out of 2 tests,0
"IAA28 (Arabidopsis thaliana, UniProt Q9XFM0)",,out of 2 tests,0
"ARF14 497-605 (Arabidopsis thaliana, UniProt Q9LQE8)",,out of 2 tests,0
"IAA20 (Arabidopsis thaliana, UniProt O24410)",weak activation fusion,out of 4 tests,2
"ARF8 699-811 (Arabidopsis thaliana, UniProt Q9FGV1)",,out of 2 tests,2
"ARF4 660-788 (Arabidopsis thaliana, UniProt Q9ZTX9)",,out of 4 tests,1
"IAA33 (Arabidopsis thaliana, UniProt Q9FKM7)",,out of 4 tests,3
"ARF18 482-602 (Arabidopsis thaliana, UniProt Q9C5W9)",,out of 2 tests,0
